Assay results of several laboratories.
Lines come from different studies, so protocols differ. Numbers after ± are the reported error.
Cell line: HeLa

SMILES	test	setting	CC50
CC[C@H](C)[C@@H]1NC(=O)[C@H](C)NC(=O)[C@H](C)NC(=O)[C@H]([C@@H](C)O)NC(=O)[C@H](Cc2ccccc2)NC(=O)[C@@H]2CSSC[C@@H]3NC(=O)[C@H](C(C)C)NC(=O)[C@H](C)NC(=O)[C@H](CO)NC(=O)[C@H](CCCCN)NC(=O)[C@@H]4CSSC[C@H](NC(=O)[C@H](CO)NC(=O)[C@H](CCC(=O)O)NC(=O)CNC(=O)[C@H](CSSC[C@H](NC(=O)CNC1=O)C(=O)N[C@@H](CO)C(=O)N4)NC(=O)[C@@H]1CCCN1C(=O)[C@H](Cc1ccccc1)NC(=O)CNC(=O)[C@H](CC(N)=O)NC(=O)[C@H](CCCCN)NC(=O)[C@H](Cc1ccc(O)cc1)NC3=O)C(=O)N[C@@H](C(C)C)C(=O)N[C@@H](Cc1ccc(O)cc1)C(=O)N[C@@H](CC(C)C)C(=O)N1CCC[C@H]1C(=O)N2	resazurin	24 h	1.24 ± 0.06 µM
CSCC[C@@H](C=O)NC(=O)[C@H](CC(C)C)NC(=O)[C@H](CC(C)C)NC(C)=O		6 days	> 100 µM
CC[C@H](C)[C@@H]1NC(=O)[C@H](CCCCN)NC(=O)[C@H](CCCCN)NC(=O)[C@H](Cc2ccc(O)cc2)NC(=O)[C@H](CC(C)C)NC(=O)[C@@H]2CCCN2C(=O)[C@H](C)NC(=O)CNC(=O)CNC(=O)[C@H](CO)NC(=O)CNC(=O)CNC(=O)[C@H](CO)NC(=O)[C@H]([C@@H](C)O)NC(=O)[C@H](CC(C)C)NC(=O)[C@H](CC(C)C)NC(=O)[C@H](C)NC(=O)[C@H](Cc2c[nH]c3ccccc23)NC(=O)[C@H](Cc2ccc(O)cc2)NC(=O)[C@H](Cc2c[nH]cn2)NC(=O)[C@H](CCC(=O)O)NC(=O)[C@H](Cc2ccccc2)NC(=O)[C@H]([C@@H](C)O)NC(=O)[C@H](CC(C)C)NC(=O)[C@@H]2CCCN2C(=O)CNC(=O)CNC(=O)CSC[C@@H](C(N)=O)NC(=O)[C@H](CC(C)C)NC(=O)[C@H](CCCCN)NC(=O)[C@H](CCCCN)NC(=O)[C@H]([C@@H](C)CC)NC1=O	cell viability, resazurin	24 h	> 32 µM
O=C(CNCCC1CCN(Cc2ccccc2)CC1)Nn1c2ccccc2c2ccccc21			7 µM
CC[C@H](C)[C@@H]1NC(=O)[C@H](C)NC(=O)[C@H](C)NC(=O)[C@H]([C@@H](C)O)NC(=O)[C@H](Cc2ccccc2)NC(=O)[C@@H]2CSSC[C@@H]3NC(=O)[C@H](C(C)C)NC(=O)[C@H](CCCCN)NC(=O)[C@H](CO)NC(=O)[C@H](CCCCN)NC(=O)[C@@H]4CSSC[C@H](NC(=O)[C@H](CO)NC(=O)[C@H](CCC(=O)O)NC(=O)[C@H](C)NC(=O)[C@H](CSSC[C@H](NC(=O)CNC1=O)C(=O)N[C@@H](CO)C(=O)N4)NC(=O)[C@@H]1CCCN1C(=O)[C@H](Cc1ccccc1)NC(=O)CNC(=O)[C@H](CC(N)=O)NC(=O)[C@H](CCCCN)NC(=O)[C@H](Cc1ccc(O)cc1)NC3=O)C(=O)N[C@@H](C(C)C)C(=O)N[C@@H](Cc1ccc(O)cc1)C(=O)N[C@@H](CC(C)C)C(=O)N1CCC[C@H]1C(=O)N2	resazurin	24 h	1.29 ± 0.06 µM
CC[C@H](C)[C@@H]1NC(=O)[C@H](CCCCN)NC(=O)[C@H](CCCCN)NC(=O)[C@H](Cc2ccc(O)cc2)NC(=O)[C@H](CC(C)C)NC(=O)[C@@H]2CCCN2C(=O)[C@H](C)NC(=O)CNC(=O)CNC(=O)[C@H](CO)NC(=O)CNC(=O)CNC(=O)[C@H](CO)NC(=O)[C@H](CCC(=O)O)NC(=O)[C@H](CC(C)C)NC(=O)[C@H](CC(C)C)NC(=O)[C@H](CCCCN)NC(=O)[C@H](CCCCN)NC(=O)[C@H]([C@@H](C)CC)NC(=O)[C@H]([C@@H](C)CC)NC(=O)[C@H](CCCCN)NC(=O)[C@H](CCCCN)NC(=O)[C@H](Cc2ccc(O)cc2)NC(=O)[C@H](CC(C)C)NC(=O)[C@@H]2CCCN2C(=O)CNC(=O)CNC(=O)CSC[C@@H](C(N)=O)NC(=O)[C@H](CC(C)C)NC(=O)[C@H](CCCCN)NC(=O)[C@H](CCCCN)NC(=O)[C@H]([C@@H](C)CC)NC1=O	cell viability, resazurin	24 h	20.7 ± 2.2 µM
CCC[C@H](NC(=O)[C@H](CC(C)C)NC(=O)OCc1ccccc1)C(=O)C(=O)NCc1ccccn1		6 days	60.3 ± 8.3 µM
CCOC(=O)CCCCCCNC1c2ccccc2N(C)S(=O)(=O)c2ccsc21 (centres unmarked)			96 µM

For quick reference, copied from above:
SMILES	test	setting	CC50
CC[C@H](C)[C@@H]1NC(=O)[C@H](CCCCN)NC(=O)[C@H](CCCCN)NC(=O)[C@H](Cc2ccc(O)cc2)NC(=O)[C@H](CC(C)C)NC(=O)[C@@H]2CCCN2C(=O)[C@H](C)NC(=O)CNC(=O)CNC(=O)[C@H](CO)NC(=O)CNC(=O)CNC(=O)[C@H](CO)NC(=O)[C@H]([C@@H](C)O)NC(=O)[C@H](CC(C)C)NC(=O)[C@H](CC(C)C)NC(=O)[C@H](C)NC(=O)[C@H](Cc2c[nH]c3ccccc23)NC(=O)[C@H](Cc2ccc(O)cc2)NC(=O)[C@H](Cc2c[nH]cn2)NC(=O)[C@H](CCC(=O)O)NC(=O)[C@H](Cc2ccccc2)NC(=O)[C@H]([C@@H](C)O)NC(=O)[C@H](CC(C)C)NC(=O)[C@@H]2CCCN2C(=O)CNC(=O)CNC(=O)CSC[C@@H](C(N)=O)NC(=O)[C@H](CC(C)C)NC(=O)[C@H](CCCCN)NC(=O)[C@H](CCCCN)NC(=O)[C@H]([C@@H](C)CC)NC1=O	cell viability, resazurin	24 h	> 32 µM
